Measured values of several laboratories.
A part holds a random share of what one study measured. Positions count from the first letter of the parent shown.

Sample 1
Target: Fragile X messenger ribonucleoprotein 1, C-terminal low-complexity region (Fmr1, Mus musculus, UniProt P35922)
Method: RNA Bind-n-Seq
Molecule type: RNA
Sample: in vitro
Tested at: 200 nM
Setting: whole 134-nt RNA, ends assumed
Together with: 150 mM KCl
Reference: input library
Direction: higher = stronger binding
Shared flanks, not repeated: GGGAGUUCUACAGUCCGACGAUC … UGGAAUUCUCGGGUGUCAAGG
Oligonucleotide	log2 enrichment
UAACUUUAGAGGAGGAUCUGAUGGAUAUGGCAGUGGACGUGGAUUUGGGGAAGGCUAUAAUGGGUAUGGAGGAGGACCUGGAGGUGGCAA	0.103
UUGUUUGAAACAGCAACGCUUCGGUCAGGGUAUCUUUUACCAGACACUAAAGCAUAUGGAGAUAGAAUAGAAAGAAUGCUUCGCCUCAGU	-1.04
UGGCCCUGGUGGCAUGCGGAGAGGAAGAGGUGGCCUCAUGGAUCGUGGUGGUCCCGGUGGAAUGUUCAGAGGUGGCCGUGGUGGAGACAG	0.0701
UGUGCUACACAUCGUAUGUACCGAAUCGGGGAAAAAAAGGGAAAAAAAGGGGAAAAAAAGGGGAAAGUAUUAUGUUACGCCGUUCGGAUC	-0.0548
CAAGUCCUGUGCUACACAUCGUAUGUACCGAAUCGGUUUUUGGUUUGGAAAAAGGAAAGUAUUAUGUUACGCCGUUCGGAUCUGCACUUC	-0.869
CUCAAGUCCUGUGCUACACAUCGUAUGUACCGAAUCGGGUGGGGUGGGGUGGGGAAAGUAUUAUGUUACGCCGUUCGGAUCUGCACUUCC	1.2
GUCCUGUGCUACACAUCGUAUGUACCGAAUCGGGUUUUUGGGGUUUUUGGUUUUUGGGGAAAGUAUUAUGUUACGCCGUUCGGAUCUGCA	-0.0579
UUUCAAAGCCAAAGGGCCUUGUGACGCCCCUCUUGCCCACCUCCCUCCACACCGUGUCCUCCCCUAUAUGACAAUCAAUGUGACCUCUCU	0.135
UAACUUUAGAGGAGGAACUGAUGGAUAUGGCAGUGGACGUGGAUUUGGGGAUGGCUAUAAUGGGUAUGGAGGAGGACCUGGAGGUGGCAA	0.281
AAGUCCUGUGCUACACAUCGUAUGUACCGAAUCGGGAAAGGGUUUUUUUGGGAGGGAAAGUAUUAUGUUACGCCGUUCGGAUCUGCACUU	0.738
UCAGGAAGUAAAAACAAAUGGAAAUGCUUCGGAUAGUGGCAGGGGUGGGGGUUGCUAAGGAAAGGGUGGGAUGGGAGUGGGUAAAGAGUU	0.224
CUCAAGUCCUGUGCUACACAUCGUAUGUACCGAAUCGGAAGGAAGGGGAAGGGAAAGUAUUAUGUUACGCCGUUCGGAUCUGCACUUCCA	-0.0798
AAGUCCUGUGCUACACAUCGUAUGUACCGAAUCGGAGGAAAAAAAGGAAAAAAAGGAAAGUAUUAUGUUACGCCGUUCGGAUCUGCACUU	-0.879
CACAGACAACACGCACCCACACAGACACAGAGGGAAGGGGUUGGGAUGGGGACAGGGUCCACAGCAGGGCGGGGUAGGACCCCAGCCCCU	1.19

Sample 2
Target: Prothrombin, mature alpha-thrombin (F2, Homo sapiens, UniProt P00734)
Method: aptamer microarray, sandwich
Molecule type: DNA with 2'F-ANA
Sample: in vitro
Tested at: 200 nM
Setting: whole 15-mer aptamer, many near background
Together with: Cy3 exosite-II aptamer, 400 nM
Direction: higher = stronger binding
Oligonucleotide: GGTTGGTGTGGTTGG
Modification	mean fluorescence intensity
2'F-ANA at 1 6 7 8 9 10 11 13 14	45.9 a.u.
2'F-ANA at 1 2 3 4 5 6 7 8 13 14	215 a.u.
2'F-ANA at 1 3 4 7 9 11 13 14 15	70.9 a.u.
2'F-ANA at 2 5 7	95.5 a.u.
2'F-ANA at 1 2 4 6 9 10 12 13 15	64.7 a.u.
2'F-ANA at 4 6 7 9 10 11 14 15	60.5 a.u.
2'F-ANA at 2 7 9 10 11 12 13 15	131 a.u.
2'F-ANA at 1 2 3 5 6 7 9 10 13 15	48.6 a.u.
2'F-ANA at 2 3 4 8 9 11 13	439 a.u.
2'F-ANA at 2 3 8 10 12 13 14	341 a.u.
2'F-ANA at 1 3 4 5 7 9 10 11 14	45.1 a.u.
2'F-ANA at 2 3 5 11 13	78.2 a.u.
2'F-ANA at 3 8 10 11 12 15	555 a.u.

Sample 3
Target: Sal-like protein 4, full length isoform B (SALL4, Homo sapiens, UniProt Q9UJQ4-2, residues 1-616)
Method: universal PBM
Molecule type: double-stranded DNA, one strand shown
Sample: in vitro
Tested at: not given
Setting: 8-mer, flanks averaged, mean of replicates
Direction: higher = stronger binding
Oligonucleotide	E-score
GACTCATA	0.195
GAGTGCGA	-0.151
ATCGCCGC	-0.189
CAGCACAA	0.0435
CCTTCCAC	-0.0938
AGCGATTA	0.0416
CCTAGCCC	-0.271
CAGTATAA	0.31
ATCGTATC	0.183
CAAGTCTA	0.106
ACCTCCCT	-0.168
CCCTATCC	-0.249
ACCTGTCC	-0.0656
AAATACCT	0.168
GAAACCCA	-0.0389
AACCTAAG	-0.0284

Sample 4
Target: ABI1, truncated, D143A, DHFR fusion (Arabidopsis thaliana)
Method: DHFR PCA, deep sequencing
Sample: yeast
Setting: methotrexate growth selection, single substitutions
Together with: (+)-ABA 0.39 µM
Reference: wild-type fitted maximum
Direction: higher = stronger binding
Starting sequence: PYL1, truncated, DHFR fusion (Arabidopsis thaliana); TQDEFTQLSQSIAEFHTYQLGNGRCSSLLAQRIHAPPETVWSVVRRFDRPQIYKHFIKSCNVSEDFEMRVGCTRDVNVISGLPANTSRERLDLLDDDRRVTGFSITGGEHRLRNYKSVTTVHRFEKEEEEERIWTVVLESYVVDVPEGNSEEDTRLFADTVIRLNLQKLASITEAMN
Substitution	relative binding score
E127P	61.5%
V118R	55.4%
T135W	-10.5%
C25L	6.89%
H110N	60%
L94Q	-16.6%
R45A	-3.43%
F47A	-13.9%
R113H	32%
V76L	21%
R32H	28.6%
I162M	3.92%
N177I	18.4%
Y53E	1.04%
R98Q	18%
E151R	30.6%
R123F	3.34%
A84Q	20.9%
L93C	22.6%
Y141H	5.78%
K126F	37%
R98S	-2.05%
E174P	-5.56%

Sample 5
Target: Interferon regulatory factor 3, full length, phosphomimetic (IRF3, Homo sapiens, UniProt Q14653, residues 1-427, S386D/S396D/S398D/S402D/T404D/S405D)
UniProt Q14653, sequence (whole entry, unmodified, looked up): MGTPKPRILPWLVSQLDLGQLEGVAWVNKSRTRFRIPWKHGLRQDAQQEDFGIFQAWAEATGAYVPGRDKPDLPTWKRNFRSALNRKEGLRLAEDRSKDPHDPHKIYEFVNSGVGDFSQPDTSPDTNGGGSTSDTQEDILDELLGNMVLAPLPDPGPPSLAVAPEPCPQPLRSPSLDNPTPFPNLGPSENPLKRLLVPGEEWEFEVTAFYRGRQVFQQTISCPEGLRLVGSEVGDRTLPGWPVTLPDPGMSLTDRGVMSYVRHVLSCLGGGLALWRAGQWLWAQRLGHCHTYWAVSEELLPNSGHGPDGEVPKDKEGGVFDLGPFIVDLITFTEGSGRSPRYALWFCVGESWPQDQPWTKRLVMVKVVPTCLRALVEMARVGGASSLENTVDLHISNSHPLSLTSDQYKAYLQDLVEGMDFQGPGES
Method: protein-binding microarray
Molecule type: double-stranded DNA, one strand shown
Sample: in vitro
Tested at: 2540 nM top
Setting: 60-bp whole probe
Together with: salmon DNA 0.4 mg/ml
Reference: random background probes
Direction: higher = stronger binding
Shared flanks, not repeated: GCCTAGCAC … GTCTTGATTCGCTTGACGCTGCTG
Oligonucleotide	fitted relative affinity
TCACCTGTCCTTTTCTTACTGTGCTAG	2.57 z-score
GACGATCTCTGTTTCGAGACGTGCTAG	2.03 z-score
GACGGTTCCCTTTTCGTGACGTGCTAG	6.32 z-score
TTAGGACTGGACTTTCGGGTAGTGCTA	-0.147 z-score
GACGGTATCGGGACTGGGCACGTGCTA	1.65 z-score
GACGATATCGGGTTTCGGGACGTGCTA	1.72 z-score
TTAGAACTGGGGTATCCATTAGTGCTA	-0.147 z-score
TGGGCATTTTTTTTATCAATGTGCTAG	-0.318 z-score
GACGGTATCCTTAACCTGACGTGCTAG	2.33 z-score
TTAGGTATCGGTCTCAGTTAGTGCTAG	3.96 z-score
GACGGACTTGGTTTCGGGACGTGCTAG	2.04 z-score
GTGATGTGAGGGGAGAGGGAGTGCTAG	-0.677 z-score
GACGGTATCCTAATGCTGACGTGCTAG	4.1 z-score
CTGTTTCTACTGTCTGTTTCCGTGCTA	2.45 z-score
TCAGCTCTGTGCTTTCCTACTGTGCTA	0.545 z-score
TGAGATTTCAGTATCGATTAGTGCTAG	2.44 z-score
GATGGTCTCGGACTGGGGACGTGCTAG	-0.522 z-score
TCATATGTAATCATTCACACTGTGCTA	0.471 z-score
TTGGGTTTCCTTATCCTTTAGTGCTAG	6.25 z-score
TTGCTTTCCTTTATGTACTCGTGCTAG	5.91 z-score
GACGGTTTCGATCTCGGGACGTGCTAG	7.67 z-score
GACGAACTGAGACTGTAGACGTGCTAG	-0.098 z-score
AAGCCATTGGTCTTCACTTGGTGCTAG	-0.917 z-score
GACGGTTTCGACTTTGGGGACGTGCTA	3.63 z-score
GAGGGTTTCGGGACTGGGGACGTGCTA	2.74 z-score

Sample 6
Target: RING finger protein unkempt homolog, zinc fingers 1-6, GST-SBP tag (UNK, Homo sapiens, UniProt Q9C0B0, residues 30-357)
Method: RNA Bind-n-Seq
Molecule type: RNA
Sample: in vitro
Tested at: not given
Setting: RNA with constant flanks, human and mouse sites, ends assumed
Reference: input RNA pool
Direction: higher = stronger binding
Shared flanks, not repeated: GGGAGUUCUACAGUCCGACGAUC … CAACAGAGGAUUGAGCAUCA
Construct (chain): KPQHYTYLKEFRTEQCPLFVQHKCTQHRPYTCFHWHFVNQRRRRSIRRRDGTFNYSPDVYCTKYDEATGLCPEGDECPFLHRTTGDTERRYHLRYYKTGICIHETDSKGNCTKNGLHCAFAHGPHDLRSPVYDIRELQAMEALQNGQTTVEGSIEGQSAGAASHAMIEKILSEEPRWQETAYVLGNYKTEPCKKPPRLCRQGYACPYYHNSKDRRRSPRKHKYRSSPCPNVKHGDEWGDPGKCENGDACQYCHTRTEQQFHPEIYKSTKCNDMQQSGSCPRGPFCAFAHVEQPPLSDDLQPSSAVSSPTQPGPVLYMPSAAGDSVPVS
Oligonucleotide	bound/input enrichment [ratio]
GGUUUCCAUGGAGAUUGUCUCACUUUGACAAAGAUUAUUGAAGCAAGAUUAAAGAUGUACAAGCAUUCCAAUAACAAGGCCAUGACAACGGGGGCGAUUGCUGCAAUGCUGUCUACCAUC	0.154
CUCAAAAUAAAGUCAGAACUUGGAUUAAAUUUCUAUCAGCAAGUGAAACUGGUCAAUUUUAUUCGGAGGCAAGUUCACCAAUGCAGAUGUUAUGGCUGCCAUGUGAAGUUCAAAUCCAAA	0.18
CAAGAAACAGAAGAUGCUAUUGGAUAUUGCUUGACAUUUGAACACAGAGAAAGAAUGUUUAAUAGACUCCAGGGAACAUGCUUCAAAGGACUUAAUGUUCUCAAGCAAUGUUGAGUUGGC	0.126
AGCAAAAAGAACAAUAUAUUUGCUCAGUUCAGGAAGAAUGAUCGAGACAAACAGAAGUUGAUAGAGACAGUCGUGAAACAGCUGAGAAGUUUGGUGAAUGGUAUGUCCCAGCACAUGUAG	0.319
GGUACGGGUCUUCCUGCCUCAUUCCUCUUCCUCUUUGUGUAGGUUUCAGCCACAAAACUGUCAUUCACUCUAGGGGACCCCUACUAAAGGGUAACUUCAGGUGUGCAGCCCUGAGCUCCA	0.0936
GCUUUUGUCUGCUCCCUGCCACGAAAUGUAAGUGAGCACGGCUAAGACUCUUGGACUAAGAUGACCUCUGGGCUUAGUUCACAGGCUAAGCUGUCUUUUGCUUCCCCACUUAAAAAAGUU	0.165

Sample 7
Target: Histone acetyltransferase KAT6A, both winged helices, GST fusion (KAT6A, Homo sapiens, UniProt Q92794, residues 1-181)
Method: protein binding microarray
Molecule type: double-stranded DNA, one strand shown
Sample: in vitro
Tested at: not given
Setting: 8-mer, flanks averaged, mean of 2 arrays, mostly near background
Reference: not given
Direction: higher = stronger binding
Residues (chain): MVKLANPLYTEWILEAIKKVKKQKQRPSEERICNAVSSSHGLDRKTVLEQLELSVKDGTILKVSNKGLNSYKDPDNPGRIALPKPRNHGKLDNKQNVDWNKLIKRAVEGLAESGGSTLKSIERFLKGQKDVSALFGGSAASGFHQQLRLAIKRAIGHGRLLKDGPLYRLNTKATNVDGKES
Oligonucleotide	E-score
ATGGCCGG	0.104
AGTAGACC	-0.0365
ACCAGTCA	-0.0567
CCCAATCA	-0.172
CTGTAGGA	-0.0859
CCTGCTAA	-0.162
AAGCGACC	0.109
GACACCTA	-0.112
GAGACCTC	-0.071
CATTATAG	0.0031
CGATTTTC	0.0838
CCGCTATA	0.148
CTGAAACA	-0.101
CACAGGGC	-0.109

Repeated from above (sample 5):
Oligonucleotide	fitted relative affinity
GACGAACTGAGACTGTAGACGTGCTAG	-0.098 z-score
GACGGTATCCTTAACCTGACGTGCTAG	2.33 z-score
GATGGTCTCGGACTGGGGACGTGCTAG	-0.522 z-score
TCAGCTCTGTGCTTTCCTACTGTGCTA	0.545 z-score
TTGCTTTCCTTTATGTACTCGTGCTAG	5.91 z-score
TCACCTGTCCTTTTCTTACTGTGCTAG	2.57 z-score
GACGGTATCCTAATGCTGACGTGCTAG	4.1 z-score
TTAGGTATCGGTCTCAGTTAGTGCTAG	3.96 z-score
CTGTTTCTACTGTCTGTTTCCGTGCTA	2.45 z-score
GACGATCTCTGTTTCGAGACGTGCTAG	2.03 z-score
GACGGTTTCGACTTTGGGGACGTGCTA	3.63 z-score
GACGATATCGGGTTTCGGGACGTGCTA	1.72 z-score
